Experimental data pooled from the literature.
Parts stem from different laboratories: compare values within a part only. Values joined by “and” are separate records of one study, mostly repeats; a detail may differ.

Sample 1
Cell line: HaCaT
Tested at: 100 µM
Time: 18 h
SMILES | viability [%]
CCOC(=O)[C@H](CCc1ccccc1)N[C@@H](C)C(=O)N1[C@H](C(=O)O)C[C@@H]2CCC[C@@H]21 | 91.7
CCOC(=O)C(C)(C)Oc1ccc(Cl)cc1 | 54.8
O=C(C1CCCCC1)N1CC(=O)N2CCc3ccccc3C2C1 (stereo not shown) | 96.7
Cc1ccccc1N1C(=O)c2cc(S(N)(=O)=O)c(Cl)cc2NC1C (stereo not shown) | 98.8
COc1ncnc(NS(=O)(=O)c2ccc(N)cc2)c1OC | 97
CC(C)(C)C(=O)C(Oc1ccc(Cl)cc1)n1ccnc1 (stereo not shown) | 91.8
Cc1cc(O)c2c(c1)C(=O)c1cccc(O)c1C2=O | 107
O=C(O)CCc1nc2ccccc2[nH]1 | 114

Sample 2
Target: Bromodomain-containing protein 4, BD1 (BRD4, Homo sapiens, UniProt O60885)
Observed: acetyl-histone H4 peptide binding
Method: AlphaScreen displacement
Tested at: 50 µM
Compound | inhibition [%]
O=C(NCc1ccc(NC(=O)C2CC2)cc1)c1n[nH]c2ccccc12 | 5.55
CCN(CCN(C)C)Cc1c(-c2ccc(F)cc2)[nH]c2ncccc12 | 6.95
Cc1sc2nc[nH]c(=O)c2c1-c1ccc(Cl)cc1 | 14.9
Cc1cc2ncc(-c3ccccc3)nc2cc1C | -17.1
CC(C)(C)n1nc(-c2cccc3ccccc23)c2c(N)ncnc21 | 10.8
CC(C)Oc1cc(Nc2nc(N[C@@H](C)c3ccc(F)cn3)ncc2Cl)[nH]n1 | 15.5
COc1ccc(NC(=S)Nc2ccc3nc[nH]c(=O)c3c2)cc1 | 12.4
CCOC(=O)CSc1ccc2nnc(-c3ccc(OC)c(OC)c3)n2n1 | 28.6

Sample 3
Cell line: mouse MPNST tumor cells
Method: high-content nuclear imaging
Item: cell number
Tested at: 10 µM
Time: 12 h
Notes: mean of 2 replicates
Reference: plate mean
Direction: higher = more cells
Compound | nuclei count [z-score]
N#Cc1cccc(-c2nc(-c3cccnc3)no2)c1 | -0.929
NNc1nncc2ccccc12 | 0.344
Nc1nc(NCC2CCC(CNS(=O)(=O)c3cccc4ccccc34)CC2)nc2ccccc12 (stereo not shown) | -5.83
CC(C)(C)c1ccc(C(O)CCCN2CCC(C(O)(c3ccccc3)c3ccccc3)CC2)cc1 (stereo not shown) | -6.57
CC1CC(OC(=O)C(O)c2ccccc2)CC(C)(C)C1 (stereo not shown) | 0.778
CCN(CC)c1ccc(C=NNC(=O)c2ccc(O)cc2)cc1 | 0.577
O=C1O[C@H]([C@@H](O)CO)C(O)=C1O | -0.121
Cc1cccc(-c2[nH]c(C(C)(C)C)nc2-c2ccc3c(c2)OCO3)n1 | -1.54

Single results of other studies
Compound | cell line | assay | conditions | endpoint | value
CC(C)(C)c1nc(-c2cccc(NS(=O)(=O)c3c(F)cccc3F)c2F)c(-c2ccnc(N)n2)s1 | L929 | CCK-8 | 25 µM, added: zVAD | viability | 64.9% and 69.1% and 66.9% and 66.3% and 66.8%

A few entries again (sample 1):
SMILES | viability [%]
COc1ncnc(NS(=O)(=O)c2ccc(N)cc2)c1OC | 97
CC(C)(C)C(=O)C(Oc1ccc(Cl)cc1)n1ccnc1 (stereo not shown) | 91.8
Cc1cc(O)c2c(c1)C(=O)c1cccc(O)c1C2=O | 107
O=C(O)CCc1nc2ccccc2[nH]1 | 114
